{"data": "Measurements pooled from the literature", "note": "Each numbered part is a random draw from the data of one study; scales do not carry over between parts.", "chain of UniProt Q9UL54 (whole entry, looked up)": "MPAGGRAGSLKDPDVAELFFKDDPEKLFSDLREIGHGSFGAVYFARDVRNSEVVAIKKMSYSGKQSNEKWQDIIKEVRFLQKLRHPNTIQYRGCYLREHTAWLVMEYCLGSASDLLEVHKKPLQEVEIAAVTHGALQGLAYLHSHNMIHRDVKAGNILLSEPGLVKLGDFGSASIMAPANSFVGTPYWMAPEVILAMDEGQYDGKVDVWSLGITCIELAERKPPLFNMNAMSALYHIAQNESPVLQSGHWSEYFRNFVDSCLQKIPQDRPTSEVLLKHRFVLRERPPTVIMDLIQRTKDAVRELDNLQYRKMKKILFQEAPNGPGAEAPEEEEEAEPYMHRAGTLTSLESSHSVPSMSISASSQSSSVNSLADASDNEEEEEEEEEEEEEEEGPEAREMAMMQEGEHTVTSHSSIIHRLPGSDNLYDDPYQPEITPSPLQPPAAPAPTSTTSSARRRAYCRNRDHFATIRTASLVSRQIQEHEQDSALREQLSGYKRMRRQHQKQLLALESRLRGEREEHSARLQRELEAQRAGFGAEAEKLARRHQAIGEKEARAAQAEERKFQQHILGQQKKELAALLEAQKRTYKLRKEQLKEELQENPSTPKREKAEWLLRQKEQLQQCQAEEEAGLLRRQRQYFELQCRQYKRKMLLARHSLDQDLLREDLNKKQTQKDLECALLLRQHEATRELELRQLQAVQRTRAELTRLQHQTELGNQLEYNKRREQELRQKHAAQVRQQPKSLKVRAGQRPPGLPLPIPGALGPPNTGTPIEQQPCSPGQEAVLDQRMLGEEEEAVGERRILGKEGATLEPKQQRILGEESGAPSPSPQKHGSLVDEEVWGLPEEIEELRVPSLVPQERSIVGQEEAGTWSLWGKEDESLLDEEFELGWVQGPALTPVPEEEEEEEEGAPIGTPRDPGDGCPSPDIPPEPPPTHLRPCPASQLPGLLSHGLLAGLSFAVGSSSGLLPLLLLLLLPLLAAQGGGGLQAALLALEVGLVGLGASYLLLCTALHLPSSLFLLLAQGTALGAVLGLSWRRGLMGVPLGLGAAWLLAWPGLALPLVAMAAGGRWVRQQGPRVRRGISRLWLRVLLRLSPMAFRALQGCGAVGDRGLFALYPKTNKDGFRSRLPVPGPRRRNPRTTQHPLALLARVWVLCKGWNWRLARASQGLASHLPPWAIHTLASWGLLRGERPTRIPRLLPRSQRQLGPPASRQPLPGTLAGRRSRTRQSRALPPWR", "chain of UniProt P54760 (whole entry, looked up)": "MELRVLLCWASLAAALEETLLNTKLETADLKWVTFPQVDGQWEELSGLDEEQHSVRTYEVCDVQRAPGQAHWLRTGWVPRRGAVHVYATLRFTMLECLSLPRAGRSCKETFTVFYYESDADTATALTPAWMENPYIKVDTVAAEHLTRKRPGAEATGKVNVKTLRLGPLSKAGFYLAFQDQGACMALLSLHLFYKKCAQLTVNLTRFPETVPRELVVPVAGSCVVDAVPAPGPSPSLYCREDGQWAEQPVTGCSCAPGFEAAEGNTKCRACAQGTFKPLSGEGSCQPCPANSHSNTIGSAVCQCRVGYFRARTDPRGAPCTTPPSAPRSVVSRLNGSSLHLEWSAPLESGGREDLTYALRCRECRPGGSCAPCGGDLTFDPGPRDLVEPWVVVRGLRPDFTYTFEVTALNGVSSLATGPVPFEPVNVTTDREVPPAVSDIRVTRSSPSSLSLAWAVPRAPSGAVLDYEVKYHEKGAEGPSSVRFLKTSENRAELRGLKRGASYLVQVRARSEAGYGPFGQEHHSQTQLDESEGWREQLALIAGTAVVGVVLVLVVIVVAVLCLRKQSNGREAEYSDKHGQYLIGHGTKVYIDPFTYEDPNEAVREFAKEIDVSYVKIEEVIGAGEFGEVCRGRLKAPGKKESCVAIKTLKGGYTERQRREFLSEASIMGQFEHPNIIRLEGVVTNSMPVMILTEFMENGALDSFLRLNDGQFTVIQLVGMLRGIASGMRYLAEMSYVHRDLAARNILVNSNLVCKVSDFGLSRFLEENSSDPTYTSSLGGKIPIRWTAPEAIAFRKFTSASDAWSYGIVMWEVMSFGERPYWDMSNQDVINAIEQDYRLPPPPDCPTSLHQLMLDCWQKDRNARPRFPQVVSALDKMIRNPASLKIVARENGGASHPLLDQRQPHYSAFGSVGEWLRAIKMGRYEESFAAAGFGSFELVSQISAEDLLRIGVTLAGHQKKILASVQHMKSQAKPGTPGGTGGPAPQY", "chain of UniProt P49761 (whole entry, looked up)": "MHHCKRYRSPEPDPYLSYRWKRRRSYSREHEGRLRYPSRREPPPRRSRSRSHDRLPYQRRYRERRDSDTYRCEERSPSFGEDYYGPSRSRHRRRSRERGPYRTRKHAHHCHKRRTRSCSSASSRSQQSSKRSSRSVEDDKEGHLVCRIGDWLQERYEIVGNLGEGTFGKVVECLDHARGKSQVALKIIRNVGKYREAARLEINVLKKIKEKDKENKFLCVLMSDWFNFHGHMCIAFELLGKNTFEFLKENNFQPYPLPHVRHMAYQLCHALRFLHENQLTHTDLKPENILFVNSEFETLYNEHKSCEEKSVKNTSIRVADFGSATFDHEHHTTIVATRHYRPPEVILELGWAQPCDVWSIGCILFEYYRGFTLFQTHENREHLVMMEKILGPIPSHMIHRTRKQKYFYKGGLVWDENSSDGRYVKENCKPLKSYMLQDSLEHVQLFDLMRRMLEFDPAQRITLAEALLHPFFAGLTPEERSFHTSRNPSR", "chain of UniProt O43283 (whole entry, looked up)": "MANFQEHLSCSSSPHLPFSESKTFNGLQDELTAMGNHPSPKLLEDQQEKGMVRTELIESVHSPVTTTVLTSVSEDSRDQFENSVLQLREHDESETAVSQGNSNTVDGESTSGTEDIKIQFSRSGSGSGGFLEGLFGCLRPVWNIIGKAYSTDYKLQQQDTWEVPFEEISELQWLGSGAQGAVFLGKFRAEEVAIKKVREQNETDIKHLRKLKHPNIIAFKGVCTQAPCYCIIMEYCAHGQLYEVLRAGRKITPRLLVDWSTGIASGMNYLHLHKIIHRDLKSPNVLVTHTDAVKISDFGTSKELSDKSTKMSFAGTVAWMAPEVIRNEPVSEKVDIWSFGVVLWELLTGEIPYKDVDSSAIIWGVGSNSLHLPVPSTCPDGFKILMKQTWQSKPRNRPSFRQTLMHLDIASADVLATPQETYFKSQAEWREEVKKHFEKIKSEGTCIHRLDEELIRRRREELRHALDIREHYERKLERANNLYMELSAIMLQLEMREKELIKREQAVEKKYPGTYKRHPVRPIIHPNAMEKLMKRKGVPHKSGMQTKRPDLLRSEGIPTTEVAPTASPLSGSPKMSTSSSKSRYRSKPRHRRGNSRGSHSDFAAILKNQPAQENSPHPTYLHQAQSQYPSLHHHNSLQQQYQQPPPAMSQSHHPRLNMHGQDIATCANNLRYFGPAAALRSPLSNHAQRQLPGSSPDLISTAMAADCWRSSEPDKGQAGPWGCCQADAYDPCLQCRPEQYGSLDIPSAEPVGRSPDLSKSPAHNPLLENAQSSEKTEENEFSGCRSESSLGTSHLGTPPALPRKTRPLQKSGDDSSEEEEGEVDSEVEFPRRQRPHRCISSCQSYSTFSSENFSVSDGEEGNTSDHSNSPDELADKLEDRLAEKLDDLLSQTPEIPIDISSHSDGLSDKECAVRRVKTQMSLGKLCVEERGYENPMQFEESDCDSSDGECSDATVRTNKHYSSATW", "chain of UniProt Q96PN8 (whole entry, looked up)": "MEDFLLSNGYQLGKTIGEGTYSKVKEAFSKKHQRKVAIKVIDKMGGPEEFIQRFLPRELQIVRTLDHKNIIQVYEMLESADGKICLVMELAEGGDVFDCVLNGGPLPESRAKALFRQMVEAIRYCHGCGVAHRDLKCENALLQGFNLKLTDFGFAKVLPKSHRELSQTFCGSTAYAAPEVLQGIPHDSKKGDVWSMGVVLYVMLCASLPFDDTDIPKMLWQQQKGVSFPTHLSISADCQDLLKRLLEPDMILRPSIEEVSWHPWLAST", "chain of UniProt Q08881 (whole entry, looked up)": "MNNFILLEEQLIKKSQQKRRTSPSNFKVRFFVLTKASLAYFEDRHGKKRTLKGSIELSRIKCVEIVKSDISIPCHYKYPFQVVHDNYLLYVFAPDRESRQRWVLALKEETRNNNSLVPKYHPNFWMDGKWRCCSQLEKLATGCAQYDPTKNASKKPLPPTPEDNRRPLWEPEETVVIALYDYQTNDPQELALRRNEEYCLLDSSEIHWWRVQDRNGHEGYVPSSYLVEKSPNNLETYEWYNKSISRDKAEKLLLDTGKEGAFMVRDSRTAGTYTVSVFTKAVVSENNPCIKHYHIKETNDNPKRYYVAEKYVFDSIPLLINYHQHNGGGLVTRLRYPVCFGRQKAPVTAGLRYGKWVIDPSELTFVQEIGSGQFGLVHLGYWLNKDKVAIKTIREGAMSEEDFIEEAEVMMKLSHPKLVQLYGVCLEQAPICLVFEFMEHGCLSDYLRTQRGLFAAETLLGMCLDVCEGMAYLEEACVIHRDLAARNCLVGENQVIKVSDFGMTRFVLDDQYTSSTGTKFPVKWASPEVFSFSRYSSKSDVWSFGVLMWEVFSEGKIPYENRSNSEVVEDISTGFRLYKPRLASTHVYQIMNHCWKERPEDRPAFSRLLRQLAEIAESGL"}
{"data": "Set 1", "host": "mouse", "matrix": "microsomes or S9", "concentration": "2 µM", "time": "0.5 h"}
{"Structure (SMILES)": "Cc1ccc(CN2CCC(CNC(=O)c3c4c(nc5ccccc35)C(=O)N(C3CCCCC3)C4)C2)cc1 (centres unmarked)", "remaining compound": "2.56%"}
{"Structure (SMILES)": "COc1cc(=O)n(C)cc1C(=O)Nc1ccccc1Br", "remaining compound": "< 1%"}
{"Structure (SMILES)": "O=C1[C@@H]2CCCN2/C(=N/c2ccccc2)N1c1ccccc1", "remaining compound": "0.618%"}
{"data": "Set 2", "target": "Fragile X messenger ribonucleoprotein 1, C-terminal low-complexity region (Fmr1, Mus musculus, UniProt P35922)", "technique": "RNA Bind-n-Seq", "molecule type": "RNA", "matrix": "in vitro", "concentration": "200 nM", "setting": "whole 134-nt RNA, ends assumed", "added": "150 mM LiCl", "reference": "input library", "direction": "higher = stronger binding", "each molecule": "7-deaza-guanosine replaces G", "constant ends, left off below": "GGGAGUUCUACAGUCCGACGAUC … UGGAAUUCUCGGGUGUCAAGG"}
{"Sequence": "CCUCAAGUCCUGUGCUACACAUCGUAUGUACCGAAUCGGGUGGUGGGGUGGGGAAAGUAUUAUGUUACGCCGUUCGGAUCUGCACUUCCA", "log2 enrichment": -0.977}
{"Sequence": "CAAGUCCUGUGCUACACAUCGUAUGUACCGAAUCGGGGUUUGGGGAGGGGUGGGGAAAGUAUUAUGUUACGCCGUUCGGAUCUGCACUUC", "log2 enrichment": -0.364}
{"Sequence": "UUGCUAACUUCAAGAUAGAGCCUCCUGGACUUUUCCGUGGCCGCGGCAACCACCCCAAGAUGGGCAUGCUGAAGAGACGAAUCAUGCCCG", "log2 enrichment": 0.0654}
{"Sequence": "ACCAUGCAGGUGGGCAUCUUUGGGAAGUGGGGCAAGGGGGGGAUAGGGAGGGGGGUAACACUUUGGGAACAGGUUGUCCCAGGUCGUUUC", "log2 enrichment": 1.56}
{"Sequence": "CCUGUGCUACACAUCGUAUGUACCGAAUCGGGAAAAAAAGGGAAAAAGGGUUUUUUUGGGAAAGUAUUAUGUUACGCCGUUCGGAUCUGC", "log2 enrichment": -2.35}
{"Sequence": "CUCAAGUCCUGUGCUACACAUCGUAUGUACCGAAUCGGAAAAAAAGGUGGUGGAAAGUAUUAUGUUACGCCGUUCGGAUCUGCACUUCCA", "log2 enrichment": -0.42}
{"Sequence": "CCUCAAGUCCUGUGCUACACAUCGUAUGUACCGAAUCGGUUUGGAGGAAAGGAAAGUAUUAUGUUACGCCGUUCGGAUCUGCACUUCCAG", "log2 enrichment": -0.328}
{"Sequence": "ACCAUGCAGGUGGGCAUCUUUGGGAAGUGGGGCAAGGGGGGGAUAGGGAGGGGGGUAACACUUUGGGAACAGGUGGUCCCAAAACGUUUC", "log2 enrichment": 1.12}
{"data": "Set 3", "target": "RING finger protein unkempt homolog, zinc fingers 1-6, GST-SBP tag (UNK, Homo sapiens, UniProt Q9C0B0, residues 30-357)", "technique": "RNA Bind-n-Seq", "molecule type": "RNA", "matrix": "in vitro", "concentration": "not given", "setting": "RNA with constant flanks, human-mouse chimeric sites, ends assumed", "reference": "input RNA pool", "direction": "higher = stronger binding", "constant ends, left off below": "GGGAGUUCUACAGUCCGACGAUC … CAACAGAGGAUUGAGCAUCA", "chain of UniProt Q9C0B0 (30-357, looked up)": "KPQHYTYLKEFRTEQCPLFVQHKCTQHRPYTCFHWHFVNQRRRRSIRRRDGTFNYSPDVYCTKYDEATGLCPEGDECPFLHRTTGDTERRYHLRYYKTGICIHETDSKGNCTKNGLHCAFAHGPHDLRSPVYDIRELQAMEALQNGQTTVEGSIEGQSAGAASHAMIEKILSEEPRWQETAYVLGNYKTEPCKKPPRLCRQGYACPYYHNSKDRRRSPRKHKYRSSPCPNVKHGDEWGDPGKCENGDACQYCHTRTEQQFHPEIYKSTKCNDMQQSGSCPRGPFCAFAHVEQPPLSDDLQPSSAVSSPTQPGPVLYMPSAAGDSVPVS"}
{"Sequence": "UACUCAACUUUCUUGCCACAUUUUGAAUUCCAAGAUGUUAUUCCUCCAGAUGACUUCCUAACGAGUGAUGAAGAGCAAGAUUCCGUUUUAUUUGGAACUAUGAGAGGACAAGUUGUUGGA", "bound/input enrichment [ratio]": 0.166}
{"Sequence": "CUUAUGGCUGCAGAAACAGGAAGUGGAAAAACUGGUGCAUUUAGUAUUCCCGUUAUCCAGAUAGUGUAUGAAACUCUGAAAGACCAACAGGAAGGAAAAAAAGGAAAAACAACUAUUAAA", "bound/input enrichment [ratio]": 1.27}
{"Sequence": "CCACCAGGAUCCCAGAAACAUGACCCUUGCUGCCUACAAGGAGAAGAUGAAGGAGCUCCCGCUGGUGUCCUUGUUCUGCUCCUGCUUCCUGGCCGAUCCCCUGAAUAAGUCGUCCUACAA", "bound/input enrichment [ratio]": 0.118}
{"Sequence": "UCCUUGGAACCCAGUCAUAUAGGUGACCUGCAAAAAGCAGACACCAGUAGUCAAGGUGCUUUAGUGUUUCUCUCAAAGGACUACGAAAUAGAAAGUCAAAAUCCCCUGGCCUCUCCUACG", "bound/input enrichment [ratio]": 2.19}
{"Sequence": "GUGACAGGUGUUAAGAUUUCCCCUCAGCAAAGAAGUGCAGUAGUCACCAUAAUUCCAUCUGUGGUGAGUGCCAGUCAGAUUGUGGAGCUGGUCCCAGAACUCAGUUUAGACAUGGGAACU", "bound/input enrichment [ratio]": 0.344}
{"Sequence": "AGUACUGACUCAGGCGGAUUUUGCAACACCAAGCUCACAGCAGCAGCAUCUUAGUCACAGUUAGGUAGUUUUGGGGCUCUGUGGCCAGGGUUUUAUUCACAUGCAGGUUUGGAAAAUGUA", "bound/input enrichment [ratio]": 3.26}
{"Sequence": "AUAGAUGAAAUUGAUGUGGACCAGGAAGGAAUUGCUGAAAUGAUCCUGGAUGAAAAUGCUAUUGCUCAAGUUCCACGCCCUGGCACAUCUUUGAAACUCCCUGGCACUAACCAAACAGGA", "bound/input enrichment [ratio]": 0.266}
{"Sequence": "GGCUGCUACUAUUCUCCCUGGAGUGGCUGGAGUUCCCGCCGGAGCGCGGCCAGACUAAUUAUAGAAAAUGCCAAGUAGGAAGUUUGUUGAGGGUGAAGUGGUCAGAGGCCGAUGGCCUGG", "bound/input enrichment [ratio]": 4.34}
{"data": "Set 4", "Structure (SMILES)": "COc1ccc2cc(OCC3(C(=O)O)CN(C(=O)c4ccc(F)cc4)C3)ccc2c1", "effect on": "cell-free assay", "technique": "competition with immobilised ligand", "concentration": "1 µM"}
{"target": "Dual specificity mitogen-activated protein kinase kinase 5 (MAP2K5, Homo sapiens, UniProt Q13163)", "remaining binding [%]": 93}
{"target": "Epidermal growth factor receptor (EGFR, Homo sapiens, UniProt P00533)", "remaining binding [%]": 100}
{"target": "Macrophage-stimulating protein receptor (MST1R, Homo sapiens, UniProt Q04912)", "remaining binding [%]": 100}
{"target": "Serine/threonine-protein kinase TAO2 (TAOK2, Homo sapiens, UniProt Q9UL54)", "remaining binding [%]": 100}
{"target": "Tyrosine-protein kinase ITK/TSK (ITK, Homo sapiens, UniProt Q08881)", "remaining binding [%]": 100}
{"target": "Mitogen-activated protein kinase kinase kinase 13 (MAP3K13, Homo sapiens, UniProt O43283)", "remaining binding [%]": 100}
{"target": "MAP/microtubule affinity-regulating kinase 3 (MARK3, Homo sapiens, UniProt P27448)", "remaining binding [%]": 94}
{"target": "Ribosomal protein S6 kinase beta-1 (RPS6KB1, Homo sapiens, UniProt P23443)", "remaining binding [%]": 100}
{"target": "Testis-specific serine/threonine-protein kinase 3 (TSSK3, Homo sapiens, UniProt Q96PN8)", "remaining binding [%]": 82}
{"target": "Dual specificity protein kinase CLK3 (CLK3, Homo sapiens, UniProt P49761)", "remaining binding [%]": 99}
{"target": "Calcium/calmodulin-dependent protein kinase kinase 1 (CAMKK1, Homo sapiens, UniProt Q8N5S9)", "remaining binding [%]": 91}
{"target": "Cyclin-dependent kinase 8 (CDK8, Homo sapiens, UniProt P49336)", "remaining binding [%]": 94}
{"target": "Ephrin type-B receptor 4 (EPHB4, Homo sapiens, UniProt P54760)", "remaining binding [%]": 95}
{"note": "Repeated from above (set 2):"}
{"Sequence": "ACCAUGCAGGUGGGCAUCUUUGGGAAGUGGGGCAAGGGGGGGAUAGGGAGGGGGGUAACACUUUGGGAACAGGUGGUCCCAAAACGUUUC", "log2 enrichment": 1.12}
{"Sequence": "ACCAUGCAGGUGGGCAUCUUUGGGAAGUGGGGCAAGGGGGGGAUAGGGAGGGGGGUAACACUUUGGGAACAGGUUGUCCCAGGUCGUUUC", "log2 enrichment": 1.56}
{"Sequence": "UUGCUAACUUCAAGAUAGAGCCUCCUGGACUUUUCCGUGGCCGCGGCAACCACCCCAAGAUGGGCAUGCUGAAGAGACGAAUCAUGCCCG", "log2 enrichment": 0.0654}
{"Sequence": "CCUGUGCUACACAUCGUAUGUACCGAAUCGGGAAAAAAAGGGAAAAAGGGUUUUUUUGGGAAAGUAUUAUGUUACGCCGUUCGGAUCUGC", "log2 enrichment": -2.35}
{"Sequence": "CAAGUCCUGUGCUACACAUCGUAUGUACCGAAUCGGGGUUUGGGGAGGGGUGGGGAAAGUAUUAUGUUACGCCGUUCGGAUCUGCACUUC", "log2 enrichment": -0.364}
